Experimental data of several laboratories.
Protocols differ between the studies behind these lines. Several values in a cell are separate wells, animals, samples, runs or records.
Target: Death-associated protein kinase 1 (DAPK1, Homo sapiens, UniProt P53355)

For COCC12C(=O)NC3C4(C(OC)CC1O)C1CC5(O)C(OC)C(O)C(OC(C)=O)(C1C5OC(=O)c1ccccc1)C3(O)C(OC)C24 (stereo not shown), the remaining activity was 92% and 83% (kinase activity, inhibitor, ProQinase kinase profiling; 25 µM; relative to: control).
CN1CCN(Cc2ccc(-c3ccc(CO[C@H]4CCC[C@@H]4NC(=O)c4cc(-c5cnn(C)c5)cnc4N)cc3)cc2)CC1 has an inhibition of -9% (enzyme activity, inhibitor; 0.1 µM).
COc1cc(-n2cc3cc(F)cc(C(N)=O)c3n2)cc(Cl)c1C1CC(O)(CCO)Cc2ccccc21 (stereo not shown) has an inhibition of 2.09% (enzyme activity, inhibitor; 10 µM).
CCN1CCN(Cc2ccc(C(=O)Nc3ccc(C)c(NCc4cnc5[nH]ccc5c4OC)c3)cc2C(F)(F)F)CC1 gave a remaining binding of 82% (binding, competition with immobilised ligand; 1 µM).
For COc1cc(Nc2nc(C)cc(-c3cnn4nc(OC)ccc34)n2)cc(C(F)(F)F)c1, the remaining activity was 88% (inhibitor; 1 µM; relative to: control).
With C[C@H]1CN(C(=O)c2cn(-c3ccnc(N)n3)c3cc(C#CC4(O)CCCCC4)ccc23)CCN1 the inhibition was 4% (enzyme activity, inhibitor; 1 µM).
The remaining binding of CNC1C[S+]2CC[S+]3CC[S+](C1)[Ru-4]321([N]=C=S)[n]2c3ccc(OC)cc3c3c4c(c5cc(F)c[n+]1c5c32)C(=O)NC4=O (stereo not shown) is reported as 3.1% (KinomeScan; 0.1 µM; relative to: untreated).
C=CC(=O)Nc1cccc(-c2cnc3[nH]cc(C(=O)NC(C)(C)C)c3n2)c1 has an inhibition of 4% (enzyme activity, inhibitor; 0.1 µM).
Cc1ccc(-c2c(/C=C(\C#N)C(=O)NC(C)C)n(CCCO)c3ncnc(N)c23)cc1 gave a remaining binding of 100% (cell-free assay, competition with immobilised ligand; 1 µM).
The inhibition of Cc1cccc(O[C@H]2CCC[C@@H](C(C)CNCc3ccncc3)C2)c1 (relative stereo) is reported as 5% (enzyme activity, inhibitor; 1 µM).
COc1ccc(O)cc1-c1c[nH]c2ncc(-c3cncc(C(=O)N(C)C)c3)cc12 gave an inhibition of -5.34% (binding, competition with immobilised ligand; 0.2 µM).
O=C(Cc1ccc(OCc2ccccc2)cc1)NC1(C(=O)O)CCN(C(=O)c2ccc(-c3cccc(Cl)c3)cc2)CC1: “activity vs control” 101% (enzyme activity, inhibitor; 10 µM).
With COc1c(Cl)cccc1Nc1c(-c2ccncc2C#C[C@@]2(C)CCCN2C(=O)/C=C/CN(C)C)[nH]c2c1C(=O)NCC2 the remaining binding was 76% (binding, competition with immobilised ligand; 3 µM).
The inhibition of C=CC(=O)N1Cc2nc(-c3cc(-c4cc(Cl)cnc4Cl)c(F)cc3F)n(-c3ccncn3)c2C1 is reported as 4.2% (cell-free assay, inhibitor; 1 µM).
CNC(=O)C1CCN(c2cc(C)c(F)cc2NC(=O)c2ccc(-c3cc(O)ccc3C)c(C)c2)CC1 gave a remaining binding of 72% (binding, competition with immobilised ligand; 1 µM).
The inhibition of NC(=O)C[C@H]1CCc2sc3ncnc(O[C@H]4CC[C@H](N5CCOCC5)CC4)c3c21 is reported as -5% (enzyme activity, inhibitor; 10 µM).
